Published values pooled from the literature.
Protocols differ between the studies behind these lines.
NEK3: Serine/threonine-protein kinase Nek3 (NEK3, Homo sapiens, UniProt P51956)
Sequence of UniProt P51956 (whole entry, looked up): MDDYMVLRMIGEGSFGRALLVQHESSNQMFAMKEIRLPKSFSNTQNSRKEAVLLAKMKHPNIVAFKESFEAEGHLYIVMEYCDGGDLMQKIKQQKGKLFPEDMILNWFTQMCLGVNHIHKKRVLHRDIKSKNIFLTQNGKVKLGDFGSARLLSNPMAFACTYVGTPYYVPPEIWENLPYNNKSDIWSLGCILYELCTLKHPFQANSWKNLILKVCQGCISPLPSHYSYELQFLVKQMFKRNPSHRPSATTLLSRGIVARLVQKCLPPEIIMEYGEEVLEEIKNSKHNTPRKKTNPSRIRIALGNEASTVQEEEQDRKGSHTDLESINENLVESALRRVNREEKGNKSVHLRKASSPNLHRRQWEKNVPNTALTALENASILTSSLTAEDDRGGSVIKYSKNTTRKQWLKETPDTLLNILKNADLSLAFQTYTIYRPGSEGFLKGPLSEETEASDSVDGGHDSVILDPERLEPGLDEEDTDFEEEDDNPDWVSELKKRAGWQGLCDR
Sequence of UniProt Q9P0L2 (whole entry, looked up): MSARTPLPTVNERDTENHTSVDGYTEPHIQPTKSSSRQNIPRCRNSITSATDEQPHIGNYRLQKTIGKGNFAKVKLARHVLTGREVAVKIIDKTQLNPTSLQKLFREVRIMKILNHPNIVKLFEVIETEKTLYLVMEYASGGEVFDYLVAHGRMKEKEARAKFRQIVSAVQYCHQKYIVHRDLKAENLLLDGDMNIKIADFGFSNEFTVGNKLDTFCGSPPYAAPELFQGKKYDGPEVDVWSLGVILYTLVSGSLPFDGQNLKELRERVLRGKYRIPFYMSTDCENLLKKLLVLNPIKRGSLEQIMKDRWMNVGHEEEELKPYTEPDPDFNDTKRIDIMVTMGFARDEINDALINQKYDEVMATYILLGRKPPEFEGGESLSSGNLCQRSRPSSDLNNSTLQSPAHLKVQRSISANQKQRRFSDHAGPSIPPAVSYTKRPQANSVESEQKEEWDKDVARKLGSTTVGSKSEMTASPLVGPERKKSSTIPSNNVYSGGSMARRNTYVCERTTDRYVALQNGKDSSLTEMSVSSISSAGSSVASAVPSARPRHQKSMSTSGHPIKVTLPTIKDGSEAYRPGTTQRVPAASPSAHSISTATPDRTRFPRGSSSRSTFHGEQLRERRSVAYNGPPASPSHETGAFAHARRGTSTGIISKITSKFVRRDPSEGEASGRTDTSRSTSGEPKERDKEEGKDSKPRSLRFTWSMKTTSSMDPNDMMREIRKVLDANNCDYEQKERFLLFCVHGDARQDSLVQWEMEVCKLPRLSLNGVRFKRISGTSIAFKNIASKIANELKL
Sequence of UniProt P06797 (whole entry, looked up): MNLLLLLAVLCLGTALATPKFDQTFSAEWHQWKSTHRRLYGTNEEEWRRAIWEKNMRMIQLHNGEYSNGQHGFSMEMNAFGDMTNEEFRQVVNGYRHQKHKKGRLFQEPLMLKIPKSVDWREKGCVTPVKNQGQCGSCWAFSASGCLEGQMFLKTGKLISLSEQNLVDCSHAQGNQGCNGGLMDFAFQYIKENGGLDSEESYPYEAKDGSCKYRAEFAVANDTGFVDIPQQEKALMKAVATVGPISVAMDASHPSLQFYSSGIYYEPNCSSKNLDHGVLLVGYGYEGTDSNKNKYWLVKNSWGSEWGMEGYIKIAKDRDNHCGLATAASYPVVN
Sequence of UniProt P78362 (whole entry, looked up): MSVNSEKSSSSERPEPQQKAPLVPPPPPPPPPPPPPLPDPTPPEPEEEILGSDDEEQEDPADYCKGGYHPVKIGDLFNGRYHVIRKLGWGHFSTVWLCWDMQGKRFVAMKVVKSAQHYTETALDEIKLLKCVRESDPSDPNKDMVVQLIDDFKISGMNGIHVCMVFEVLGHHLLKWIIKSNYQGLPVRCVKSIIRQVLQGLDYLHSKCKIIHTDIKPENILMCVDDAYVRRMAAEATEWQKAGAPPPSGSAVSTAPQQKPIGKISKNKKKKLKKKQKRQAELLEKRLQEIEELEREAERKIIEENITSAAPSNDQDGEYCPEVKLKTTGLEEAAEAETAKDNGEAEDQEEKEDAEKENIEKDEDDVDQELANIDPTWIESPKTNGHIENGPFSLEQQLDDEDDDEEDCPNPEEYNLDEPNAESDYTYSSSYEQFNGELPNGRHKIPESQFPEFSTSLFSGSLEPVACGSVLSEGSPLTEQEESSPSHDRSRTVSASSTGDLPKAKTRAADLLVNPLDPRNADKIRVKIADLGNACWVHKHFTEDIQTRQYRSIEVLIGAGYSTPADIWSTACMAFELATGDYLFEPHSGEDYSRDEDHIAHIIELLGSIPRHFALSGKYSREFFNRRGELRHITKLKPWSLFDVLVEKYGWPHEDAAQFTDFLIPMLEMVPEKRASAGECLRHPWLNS
Sequence of UniProt Q8NE63 (whole entry, looked up): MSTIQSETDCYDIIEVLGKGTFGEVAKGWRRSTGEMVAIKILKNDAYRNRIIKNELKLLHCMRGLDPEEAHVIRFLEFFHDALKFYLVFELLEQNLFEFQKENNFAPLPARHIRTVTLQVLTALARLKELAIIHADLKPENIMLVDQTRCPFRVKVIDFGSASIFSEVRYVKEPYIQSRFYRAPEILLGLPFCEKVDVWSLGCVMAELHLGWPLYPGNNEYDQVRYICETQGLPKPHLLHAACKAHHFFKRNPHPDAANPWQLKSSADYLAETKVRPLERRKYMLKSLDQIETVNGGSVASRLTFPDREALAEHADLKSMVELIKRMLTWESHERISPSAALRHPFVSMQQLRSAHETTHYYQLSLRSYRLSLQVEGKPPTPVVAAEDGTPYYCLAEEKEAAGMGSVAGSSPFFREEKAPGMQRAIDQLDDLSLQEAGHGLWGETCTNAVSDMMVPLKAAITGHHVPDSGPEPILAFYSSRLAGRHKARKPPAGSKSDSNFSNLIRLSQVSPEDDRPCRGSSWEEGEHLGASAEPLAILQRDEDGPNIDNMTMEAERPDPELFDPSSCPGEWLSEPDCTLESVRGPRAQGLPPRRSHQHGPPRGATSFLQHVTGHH
Sequence of UniProt Q9HBH9 (whole entry, looked up): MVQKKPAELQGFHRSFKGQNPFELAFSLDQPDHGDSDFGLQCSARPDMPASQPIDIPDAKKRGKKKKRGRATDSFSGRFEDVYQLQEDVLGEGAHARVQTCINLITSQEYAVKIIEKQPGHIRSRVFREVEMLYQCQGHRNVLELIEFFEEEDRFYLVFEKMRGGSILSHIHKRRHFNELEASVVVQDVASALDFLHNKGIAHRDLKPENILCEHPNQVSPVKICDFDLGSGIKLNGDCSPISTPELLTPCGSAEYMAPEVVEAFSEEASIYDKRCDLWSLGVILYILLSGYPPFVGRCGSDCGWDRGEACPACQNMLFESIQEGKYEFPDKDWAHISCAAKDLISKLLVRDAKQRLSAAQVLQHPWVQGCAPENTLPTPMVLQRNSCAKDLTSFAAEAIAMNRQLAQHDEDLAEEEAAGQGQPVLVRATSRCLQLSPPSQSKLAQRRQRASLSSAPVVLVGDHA
Sequence of UniProt Q9HAZ1 (whole entry, looked up): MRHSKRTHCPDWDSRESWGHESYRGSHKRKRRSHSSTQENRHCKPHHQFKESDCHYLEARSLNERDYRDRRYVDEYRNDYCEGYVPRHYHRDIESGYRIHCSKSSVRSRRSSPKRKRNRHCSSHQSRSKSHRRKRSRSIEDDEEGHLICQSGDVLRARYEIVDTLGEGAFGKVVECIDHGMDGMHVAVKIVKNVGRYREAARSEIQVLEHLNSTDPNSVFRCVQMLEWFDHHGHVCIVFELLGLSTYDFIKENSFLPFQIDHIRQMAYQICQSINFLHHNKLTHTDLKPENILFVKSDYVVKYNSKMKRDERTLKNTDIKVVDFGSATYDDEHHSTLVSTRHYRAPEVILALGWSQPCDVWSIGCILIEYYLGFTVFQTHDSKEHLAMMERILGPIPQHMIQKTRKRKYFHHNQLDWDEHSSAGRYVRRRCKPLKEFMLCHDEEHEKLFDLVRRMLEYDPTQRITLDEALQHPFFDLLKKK
Sequence of UniProt P16591 (whole entry, looked up): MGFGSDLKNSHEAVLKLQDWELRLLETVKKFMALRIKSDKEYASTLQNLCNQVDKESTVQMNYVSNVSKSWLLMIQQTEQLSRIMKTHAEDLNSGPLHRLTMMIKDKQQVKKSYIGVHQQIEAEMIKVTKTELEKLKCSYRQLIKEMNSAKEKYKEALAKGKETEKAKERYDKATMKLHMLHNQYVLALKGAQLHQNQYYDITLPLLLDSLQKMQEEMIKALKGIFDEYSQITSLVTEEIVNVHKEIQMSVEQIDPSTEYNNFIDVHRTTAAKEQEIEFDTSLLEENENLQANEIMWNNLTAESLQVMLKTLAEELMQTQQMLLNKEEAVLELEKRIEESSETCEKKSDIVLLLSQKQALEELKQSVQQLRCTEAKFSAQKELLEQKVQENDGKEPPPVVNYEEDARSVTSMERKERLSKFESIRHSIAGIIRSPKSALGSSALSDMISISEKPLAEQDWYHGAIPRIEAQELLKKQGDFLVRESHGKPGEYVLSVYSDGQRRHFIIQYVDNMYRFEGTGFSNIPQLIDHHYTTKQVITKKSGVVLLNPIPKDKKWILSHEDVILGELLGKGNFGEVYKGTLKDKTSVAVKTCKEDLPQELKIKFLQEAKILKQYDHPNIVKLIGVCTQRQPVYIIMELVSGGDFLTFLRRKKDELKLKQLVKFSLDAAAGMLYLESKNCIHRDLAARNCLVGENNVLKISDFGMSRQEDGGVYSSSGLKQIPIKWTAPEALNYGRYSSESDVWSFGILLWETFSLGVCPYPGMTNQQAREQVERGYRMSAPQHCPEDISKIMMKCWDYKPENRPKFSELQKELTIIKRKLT

COc1cc(N2CCN(C)CC2)ccc1Nc1nc(N)n(C(=S)NCc2c(Cl)cccc2Cl)n1 has a remaining activity of 0.05% (HIPK4 (Homo sapiens, UniProt Q8NE63); enzyme activity; 10 µM; baseline: control).
O=C1NC(=O)/C(=C/c2ccc(-c3ccc(F)cc3O)o2)S1 has a remaining activity of 62% (MKNK2 (Homo sapiens, UniProt Q9HBH9); enzyme activity; 10 µM).
With COc1cc(-c2cncc3c2CN(C)Cc2cc(N4CCNCC4)ccc2-3)cc(OC)c1OC the remaining activity was 110% (SRPK2 (Homo sapiens, UniProt P78362); kinase activity; 1 µM, human enzyme, with: ATP 10 µM; baseline: DMSO control).
Cc1cc(Nc2cc(N3CCN(C)CC3)nc(Sc3ccc(NC(=O)C4CC4)cc3)n2)[nH]n1 has a remaining activity of 105% (NEK3; kinase activity, KinaseProfiler; 0.03 µM, species human; baseline: control).
The remaining activity of O=C(NC1CCC1)c1ccc2nc(-c3cccc(NS(=O)(=O)NCCN4CCCCC4)c3)cn2c1 is reported as 71% (CLK4 (Homo sapiens, UniProt Q9HAZ1); enzyme activity; 10 µM).
For CNc1ncc2c(/C=C/C(=O)N3CCC(OC)CC3)nn(Cc3cccc(C(F)(F)F)c3)c2n1, the remaining activity was 93% (MARK1 (Homo sapiens, UniProt Q9P0L2); kinase activity, inhibitor; 1 µM; baseline: untreated control).
COc1cc(Nc2ncc3c(n2)-c2ccc(Cl)cc2C(c2c(F)cccc2OC)=NC3)ccc1C(=O)O gave a remaining activity of 104% (DYRK1A; kinase activity; 1 µM).
C=CC(=O)N1CCC[C@@H](n2nc(-c3ccc(Oc4ccccc4)cc3)c3c(N)ncnc32)C1 gave a remaining activity of 97.1% (FER (Homo sapiens, UniProt P16591); 0.1 µM).
For O=C(O)c1ccc(Nc2ncc3c(n2)-c2ccc(Cl)cc2C(c2c(F)cccc2F)=NC3)cc1, the remaining activity was 41% (Axl(h); kinase activity; 1 µM).
For Cc1cccc(C)c1C(=O)OCC(=O)[C@H](CCCCN)NC(=O)[C@H](CCCNC(=N)N)NC(=O)OCc1ccccc1, the remaining activity was 100% (Procathepsin L (Mus musculus, UniProt P06797); inhibitor; 1 µM, room temperature, with: AMC substrate).
For COc1cc(F)ccc1-c1ncnc(Nc2cccc(C[S@](C)(=N)=O)c2)n1, the remaining activity was 54% (NEK3; kinase activity; 10 µM, with: 10 µM ATP).

Some of these lines once more:
COc1cc(N2CCN(C)CC2)ccc1Nc1nc(N)n(C(=S)NCc2c(Cl)cccc2Cl)n1 has a remaining activity of 0.05% (HIPK4 (Homo sapiens, UniProt Q8NE63); enzyme activity; 10 µM; baseline: control).
For CNc1ncc2c(/C=C/C(=O)N3CCC(OC)CC3)nn(Cc3cccc(C(F)(F)F)c3)c2n1, the remaining activity was 93% (MARK1 (Homo sapiens, UniProt Q9P0L2); kinase activity, inhibitor; 1 µM; baseline: untreated control).
